Measured values pooled from the literature.
Parts stem from different laboratories: compare values within a part only. Numbers after ± are the reported error. In brackets after ≈: the same amount, converted by molar mass.
Sequence of UniProt P29317 (whole entry, looked up): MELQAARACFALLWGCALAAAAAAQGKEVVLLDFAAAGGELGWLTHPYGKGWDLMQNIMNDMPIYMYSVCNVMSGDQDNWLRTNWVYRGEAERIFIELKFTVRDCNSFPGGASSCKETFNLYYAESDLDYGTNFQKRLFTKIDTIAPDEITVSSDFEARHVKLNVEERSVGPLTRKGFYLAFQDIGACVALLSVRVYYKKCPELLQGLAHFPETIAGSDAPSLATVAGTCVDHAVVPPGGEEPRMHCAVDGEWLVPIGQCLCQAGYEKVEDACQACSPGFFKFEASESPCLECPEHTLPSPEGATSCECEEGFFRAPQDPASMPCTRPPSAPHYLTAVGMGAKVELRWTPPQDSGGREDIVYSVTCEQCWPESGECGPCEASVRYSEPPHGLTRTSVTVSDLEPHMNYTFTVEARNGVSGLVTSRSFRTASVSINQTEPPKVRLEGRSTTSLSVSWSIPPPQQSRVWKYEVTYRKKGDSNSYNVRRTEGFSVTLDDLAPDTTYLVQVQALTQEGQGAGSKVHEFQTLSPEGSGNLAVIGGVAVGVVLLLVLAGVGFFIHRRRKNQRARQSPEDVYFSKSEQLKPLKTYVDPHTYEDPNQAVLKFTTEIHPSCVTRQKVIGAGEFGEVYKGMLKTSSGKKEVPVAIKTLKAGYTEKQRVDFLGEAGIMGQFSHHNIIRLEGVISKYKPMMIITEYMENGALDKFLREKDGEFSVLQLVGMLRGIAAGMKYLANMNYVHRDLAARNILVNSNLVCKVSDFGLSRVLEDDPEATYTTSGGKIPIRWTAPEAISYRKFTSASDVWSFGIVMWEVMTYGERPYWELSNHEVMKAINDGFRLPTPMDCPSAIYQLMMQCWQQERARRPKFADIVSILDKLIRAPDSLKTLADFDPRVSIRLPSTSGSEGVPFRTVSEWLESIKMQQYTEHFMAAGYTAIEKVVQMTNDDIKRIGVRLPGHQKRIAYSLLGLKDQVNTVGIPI

Sample 1
Organism: Bacillus pumilus
Technique: broth microdilution
Strain: MTCC 2296
CC1(C)S[C@@H]2[C@H](NC(=O)Cc3ccccc3)C(=O)N2[C@H]1C(=O)O gave an MBC/MIC ratio of 2.
Cc1ccc(-c2cc(-c3ccc(OCc4ccccc4)cc3)nc3c(N=Nc4ccc(F)cc4)c(N)nn23)cc1 has an MBC/MIC ratio of 1.99.
Nc1nn2c(-c3ccco3)cc(-c3ccc(OCc4ccccc4)cc3)nc2c1N=Nc1ccc(F)cc1 has an MBC/MIC ratio of 3.9.
The MBC/MIC ratio of COc1ccc(N=Nc2c(N)nn3c(-c4ccc(C)cc4)cc(-c4ccc(OCc5ccccc5)cc4)nc23)cc1 is reported as 4.
The MBC/MIC ratio of Cc1ccc(N=Nc2c(N)nn3c(-c4ccc(Cl)cc4Cl)cc(-c4ccc(OCc5ccccc5)cc4)nc23)cc1 is reported as 1.99.

Sample 2
Target: human lysosomal acid alpha-glucosidase
Mode: inhibitor
Together with: pNPG substrate
COc1cc(/C=N/NC(=S)NN=Cc2cccs2)ccc1Oc1ccnc2cc(Cl)ccc12 has an IC50 of 9.97 ± 0.08 µg/mL (≈ 20.1 µM).
For COc1cc(/C=N/NC(=S)N/N=C/c2ccc(Br)cc2)ccc1Oc1ccnc2cc(Cl)ccc12, the IC50 was 8.33 ± 0.23 µg/mL (≈ 14.6 µM).
For COc1cc(/C=N/NC(=S)N/N=C/c2ccc(Br)s2)ccc1Oc1ccnc2cc(Cl)ccc12, the IC50 was 13.5 ± 0.36 µg/mL (≈ 23.4 µM).

Other studies, line by line
O=C(O)c1cn(Cc2ccc(C(F)(F)F)cc2)c2ccc(Oc3ccccc3)cc2c1=O gave a CC50 of 10.2 ± 1.82 µM (MDA-MB-231/LM2-4; DNS; 72 h, 10% FBS).
The remaining activity of O=C(Nc1cc(-c2ccc(Cl)cc2)[nH]n1)C1CCCCC1 is reported as 105% (EPHA2 (Homo sapiens, UniProt P29317); enzyme activity, Dundee kinase panel; 10 µM).
O=C(O)c1c[nH]c2ccc(Oc3ccccc3)cc2c1=O gave a CC50 of 91.36 ± 0.11 µM (MDA-MB-231; 72 h).

Some of these lines once more (sample 1):
Cc1ccc(-c2cc(-c3ccc(OCc4ccccc4)cc3)nc3c(N=Nc4ccc(F)cc4)c(N)nn23)cc1 has an MBC/MIC ratio of 1.99.
